Assay results pooled from the literature.
Every numbered part comes from another study and shows a few of its results, in no order.

Sample 1
Target: RING finger protein unkempt homolog, zinc fingers 1-6, GST-SBP tag (UNK, Homo sapiens, UniProt Q9C0B0, residues 30-357)
Technique: RNA Bind-n-Seq
Molecule type: RNA
Medium: in vitro
Tested at: not given
Setting: RNA with constant flanks, human-mouse chimeric sites, ends assumed
Relative to: input RNA pool
Reading: higher = stronger binding
Constant ends, left off below: GGGAGUUCUACAGUCCGACGAUC … CAACAGAGGAUUGAGCAUCA
Construct (chain): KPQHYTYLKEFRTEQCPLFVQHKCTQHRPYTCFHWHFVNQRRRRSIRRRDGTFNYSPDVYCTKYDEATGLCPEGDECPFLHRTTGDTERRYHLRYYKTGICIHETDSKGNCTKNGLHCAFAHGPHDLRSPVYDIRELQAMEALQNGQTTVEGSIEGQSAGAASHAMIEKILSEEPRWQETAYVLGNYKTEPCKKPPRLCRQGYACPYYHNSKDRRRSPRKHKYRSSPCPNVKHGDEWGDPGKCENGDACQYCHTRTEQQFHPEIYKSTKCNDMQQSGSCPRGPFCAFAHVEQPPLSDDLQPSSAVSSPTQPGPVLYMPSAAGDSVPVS
Oligonucleotide | bound/input enrichment [ratio]
UCUUAACUUAUUCAUUUAACUUAUUUUUAUAGCUAGAUAAAUAUUGUUAGUCUUAGACAAUAGCUCACAUUUUUUGAAAAGCAUGCUCUCCCUGUCCAUUUGUCUUACAAUAACACUCAG | 27.2
AGAGAUAAGACAUCCAGGAACAUGCGAGGCUCCCGGAUGAAUGGGUUGCCUAGCCCCACUCACAGCGCCCACUGUAGCUUCUACAGAACCAGAACCUUGCAGGCACUAAGUAAUGAGAAG | 0.156
CAGGGCAUUAUUUCUCGAGCUGUUAAACACCUGUUCAAGAGUAUUGAUGAGAAAAAGACCUCAGCGAUUAAAAACGGGCUGCCCCCUCCUGAAUUCAAAGUGAAUGCCCAGUUCCUAGAG | 0.287
AAUGUGGAGUUGAGUUCCUUGGCCCGGCUUCCCAGCUUAAAUAAACUCCGGAAGUUGGAACUUAGUGACAAUAUAAUUUCUGGAGGCUUGGAAGUCCUGGCAGAGAAAUGUCCAAAUCUU | 0.18
UCGGAUGCUGUGCUGGGUCACUUUUCAUAUCCUGAUCCUUCACAGUGGACAGAUGAAGAACUGGGAAUCCCUCCUGAUGACGAGGACUGACACUGUAGACUCAGCCUACGAGUAGGAGCA | 0.316
GUAAUGGACGUCAACACUGCUCUACAAGAGGUGCUGAAGACCGCCCUCAUCCACGAUGGCCUAGCACGUGGAAUUCGCGAAGCUGCCAAAGCCUUAGACAAGCGCCAAGCCCAUCUGUGU | 1.29
CGCGUCCUCUCGCUGCUGCGGAGCCCGAGCUGGGAACCAUUCCGGGACUGGUACCCUGCACACAGCCGCCUCUUCGACCAGGCCUUCGGGGUGCCCCGGUUGCCCGAUGAGUGGUCGCAG | 0.088
UCUGGUCACACUCGUGUGUAUGGUGUUUGCUUUGUGGACACUUCACUGGGAAAGUUUUUCAUCGGCCAGUUUUCGGAUGACCGCCACUGUUCCAGAUUUAGGACUCUAGUGGCUCACUAU | 0.158

Sample 2
Target: RNA binding protein fox-1 homolog 2, RRM domain, GST-SBP tag (RBFOX2, Homo sapiens, UniProt O43251-10, residues 100-194)
Technique: RNA Bind-n-Seq
Molecule type: RNA
Medium: in vitro
Tested at: 365 nM
Setting: natural RNA segment, single round, ends assumed
Relative to: no-protein control
Reading: higher = stronger binding
Constant ends, left off below: GGGAGUUCUACAGUCCGACGAUC … UGGAAUUCUCGGGUGCCAA
Target sequence (chain): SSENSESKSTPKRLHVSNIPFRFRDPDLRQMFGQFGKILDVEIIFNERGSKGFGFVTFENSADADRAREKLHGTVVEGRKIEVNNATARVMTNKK
Oligonucleotide | RBNS enrichment (R)
UGAUACAGCACAUAUACAGAAUUAGCCAAAUGGUAUAAGACAAUAGAAAAAGGCUGUGGAUUCUUUGAGGACAUCACUAGAAAUCAUUCUUUGUCUCAAGUUCACACUCU | 0.492
CAGGGACACUGCUGCCAUGUCCCAACAAGCUGUUCAGUUUAAACUGCUGAAUGACAUUAUUUGAGCUAUUUAAAGCUUACUUUAGUAUGAACUAAAUGAAGGUUAAAACA | 0.423
GUGUGGGACUGGAGACAUCAAUGUAUCUGACUUCAAAGCCCAUGCUGUAGUGGUUGGUGGAUCCUGGCAUUUCAGAGAAAAGGUCAUGAGGUGGUUUUGGGCUGUGGUUU | 0.747
UGUACCAGCAGCCCUGCAUACAGGGCCCUGUGAGCCCCCCUGCAGUCCUGUGAGGCCCCUGAAGCUCUGUGAGGCCCCUGAAGCUCUGUGAACCCCCUGCAGCCCUGUGA | 0.286
UGGUUACACCAUCAUCUACCCUCUAGCUAGGGAUGAGGUGGAGGUAAAAUGCUCCCUGUGAGUUUGCAAGCUCUGAAAACAACACCGCUGUGUGCUCAUUCUUAGAGUGA | 0.229
GAGAGUUUUUAAUUGUAAAUGCAUACUUGGGAAGGACUUAGAGUUUUAAACUGUUUUUUGCUUUUGCUUUUCCCUGACUCCCUUUGCUUGGAGUCAGCUGCACACCAGUA | 1.12
CCUCUCCUUUAAUUUAUUUCUUCAAUGCCUCGACCUGCCGCAGGGGUCCGGGAUUGGGAAUCCGCCCAUCUGGGGGCCUCUUCUGCUUUCUCGGGAAUUUUCAUCUAGGA | 0.867
GGAGGAGUAGGAAGACCCAGCCCUAUUUGACUGGGGAGAGGAGGAUCUGGAGUCCUUCAUGCCCAGGUCUGGAACCCAGGUUCUGACCCCAGGGCCCCACCCUGGGCUGG | 0.226

Sample 3
Target: Fragile X messenger ribonucleoprotein 1, C-terminal low-complexity region (Fmr1, Mus musculus, UniProt P35922)
Technique: RNA Bind-n-Seq
Molecule type: RNA
Medium: in vitro
Tested at: 200 nM
Setting: whole 134-nt RNA, ends assumed
With: 150 mM KCl
Relative to: input library
Reading: higher = stronger binding
Constant ends, left off below: GGGAGUUCUACAGUCCGACGAUC … UGGAAUUCUCGGGUGUCAAGG
Oligonucleotide | log2 enrichment
CUCAAGUCCUGUGCUACACAUCGUAUGUACCGAAUCGGGAAGGGAAGGAAGGGAAAGUAUUAUGUUACGCCGUUCGGAUCUGCACUUCCA | 0.254
UCCUGUGCUACACAUCGUAUGUACCGAAUCAAAUUUAAACCCCCCCAAAUUUUUUUAAAAAAGUAUUAUGUUACGCCGUUCGGAUCUGCA | 0.543
CACAGACAACACGCACCCACACAGACACAGAGGGAAGGGGUUGGGAUGGGGACAGGGUGCAGAGCAGGGCGGGGUAGGACCCCAGCCCCU | 1.18
CAAGUCCUGUGCUACACAUCGUAUGUACCGAAUCGGGUUGGGGUUGGGGUUGGGGAAAGUAUUAUGUUACGCCGUUCGGAUCUGCACUUC | 1.31
UGUACAAACACUUUCCCAUCCCCCUCAUUAACCGGCUGGAGAAGCACUAUCUGGAUAUCAACACGGUGCUGGAGAAAUGGCAGAAGAGCA | -0.198
GUCCUGUGCUACACAUCGUAUGUACCGAAUCGGGCCCCCGGGCCCCCGGGGCCCCCGGGAAAGUAUUAUGUUACGCCGUUCGGAUCUGCA | -1.31
UCGGACGCCGCCAACCUGCACGAGUUCCACGCGGACCUGCGCUCAUGCUUUGCACCCCAGCACAUGGCCAUGCUGUGUAGCCCCAUCCUC | 0.424
UCUUCCGUGACAUUUCAUUUGGGGAACAACUUUUCUCUUUACAGGCCCGAGUGACUAAGGGAUGUACCAUUGUUAAGCCUUUCAACCUGU | 0.928
AAGUCCUGUGCUACACAUCGUAUGUACCGAAUCGGGAAAAGGAAAAGGGAAAAGGGGAAAGUAUUAUGUUACGCCGUUCGGAUCUGCACU | -0.253

Sample 4
Target: Sal-like protein 4, full length isoform A (SALL4, Homo sapiens, UniProt Q9UJQ4, residues 1-1053)
UniProt Q9UJQ4, sequence (whole entry, looked up): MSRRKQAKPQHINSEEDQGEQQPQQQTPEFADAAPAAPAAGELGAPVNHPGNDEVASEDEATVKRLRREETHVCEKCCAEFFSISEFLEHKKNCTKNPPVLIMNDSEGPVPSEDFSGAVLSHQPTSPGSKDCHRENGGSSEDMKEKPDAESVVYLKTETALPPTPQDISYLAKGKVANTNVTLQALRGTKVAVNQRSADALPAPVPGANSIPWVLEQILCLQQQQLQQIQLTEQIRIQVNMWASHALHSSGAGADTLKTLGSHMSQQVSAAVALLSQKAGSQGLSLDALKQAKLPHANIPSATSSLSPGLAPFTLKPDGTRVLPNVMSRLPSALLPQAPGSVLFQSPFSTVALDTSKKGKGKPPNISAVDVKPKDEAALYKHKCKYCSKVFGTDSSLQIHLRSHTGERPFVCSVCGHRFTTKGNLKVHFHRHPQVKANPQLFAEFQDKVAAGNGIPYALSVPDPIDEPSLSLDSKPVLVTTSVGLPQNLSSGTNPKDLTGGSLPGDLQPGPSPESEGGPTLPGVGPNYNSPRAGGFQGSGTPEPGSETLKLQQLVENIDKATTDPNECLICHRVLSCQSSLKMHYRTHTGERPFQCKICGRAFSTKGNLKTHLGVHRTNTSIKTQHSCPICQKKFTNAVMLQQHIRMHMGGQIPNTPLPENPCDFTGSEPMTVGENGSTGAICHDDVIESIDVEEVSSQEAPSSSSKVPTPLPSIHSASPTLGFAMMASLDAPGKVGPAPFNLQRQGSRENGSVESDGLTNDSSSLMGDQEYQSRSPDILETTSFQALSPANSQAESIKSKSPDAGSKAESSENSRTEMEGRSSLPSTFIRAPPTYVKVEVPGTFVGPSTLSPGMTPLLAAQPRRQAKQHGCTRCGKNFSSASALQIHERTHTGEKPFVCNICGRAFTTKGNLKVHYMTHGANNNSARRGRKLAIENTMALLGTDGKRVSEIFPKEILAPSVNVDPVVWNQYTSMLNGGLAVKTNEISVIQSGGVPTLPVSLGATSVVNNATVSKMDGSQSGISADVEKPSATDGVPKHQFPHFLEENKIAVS
Technique: universal PBM
Molecule type: double-stranded DNA, one strand shown
Medium: in vitro
Tested at: 600 nM
Setting: 8-mer, flanks averaged, mean of replicates
Reading: higher = stronger binding
Oligonucleotide | E-score
CTGCTGCA | -0.18
ACTGGACT | -0.00364
CAGGGCCG | -0.29
CCTCACGC | -0.13
AAACTATC | 0.136
CATCTCTC | -0.112
CAACGGCG | -0.293
CTCACTCA | -0.0328
AACAACTA | 0.154
CCCGAAAC | -0.105
CTAAGCCC | -0.29
GCGTGACC | -0.289
TGGCCCCA | -0.353
GTCATAAC | 0.253
CCTAGAGG | -0.191
AGAAAAGA | 0.139
AGAATGCG | -0.057
ACTCCCGC | -0.0212
ACCGTTTG | -0.121
ATACCTGA | 0.196
AACAAAAG | 0.234
CAGCGCAA | -0.125
GTCACGCA | -0.154
GGAAGTAA | 0.101

A few entries again (sample 1):
Oligonucleotide | bound/input enrichment [ratio]
AGAGAUAAGACAUCCAGGAACAUGCGAGGCUCCCGGAUGAAUGGGUUGCCUAGCCCCACUCACAGCGCCCACUGUAGCUUCUACAGAACCAGAACCUUGCAGGCACUAAGUAAUGAGAAG | 0.156
GUAAUGGACGUCAACACUGCUCUACAAGAGGUGCUGAAGACCGCCCUCAUCCACGAUGGCCUAGCACGUGGAAUUCGCGAAGCUGCCAAAGCCUUAGACAAGCGCCAAGCCCAUCUGUGU | 1.29
UCUUAACUUAUUCAUUUAACUUAUUUUUAUAGCUAGAUAAAUAUUGUUAGUCUUAGACAAUAGCUCACAUUUUUUGAAAAGCAUGCUCUCCCUGUCCAUUUGUCUUACAAUAACACUCAG | 27.2
UCUGGUCACACUCGUGUGUAUGGUGUUUGCUUUGUGGACACUUCACUGGGAAAGUUUUUCAUCGGCCAGUUUUCGGAUGACCGCCACUGUUCCAGAUUUAGGACUCUAGUGGCUCACUAU | 0.158
AAUGUGGAGUUGAGUUCCUUGGCCCGGCUUCCCAGCUUAAAUAAACUCCGGAAGUUGGAACUUAGUGACAAUAUAAUUUCUGGAGGCUUGGAAGUCCUGGCAGAGAAAUGUCCAAAUCUU | 0.18
CAGGGCAUUAUUUCUCGAGCUGUUAAACACCUGUUCAAGAGUAUUGAUGAGAAAAAGACCUCAGCGAUUAAAAACGGGCUGCCCCCUCCUGAAUUCAAAGUGAAUGCCCAGUUCCUAGAG | 0.287
CGCGUCCUCUCGCUGCUGCGGAGCCCGAGCUGGGAACCAUUCCGGGACUGGUACCCUGCACACAGCCGCCUCUUCGACCAGGCCUUCGGGGUGCCCCGGUUGCCCGAUGAGUGGUCGCAG | 0.088
